Measurements gathered from unrelated publications.
Each numbered part is a random draw from the data of one study; scales do not carry over between parts. Values joined by “and” are separate records of one study, mostly repeats; a detail may differ.
Sequence of UniProt O43353 (whole entry, looked up): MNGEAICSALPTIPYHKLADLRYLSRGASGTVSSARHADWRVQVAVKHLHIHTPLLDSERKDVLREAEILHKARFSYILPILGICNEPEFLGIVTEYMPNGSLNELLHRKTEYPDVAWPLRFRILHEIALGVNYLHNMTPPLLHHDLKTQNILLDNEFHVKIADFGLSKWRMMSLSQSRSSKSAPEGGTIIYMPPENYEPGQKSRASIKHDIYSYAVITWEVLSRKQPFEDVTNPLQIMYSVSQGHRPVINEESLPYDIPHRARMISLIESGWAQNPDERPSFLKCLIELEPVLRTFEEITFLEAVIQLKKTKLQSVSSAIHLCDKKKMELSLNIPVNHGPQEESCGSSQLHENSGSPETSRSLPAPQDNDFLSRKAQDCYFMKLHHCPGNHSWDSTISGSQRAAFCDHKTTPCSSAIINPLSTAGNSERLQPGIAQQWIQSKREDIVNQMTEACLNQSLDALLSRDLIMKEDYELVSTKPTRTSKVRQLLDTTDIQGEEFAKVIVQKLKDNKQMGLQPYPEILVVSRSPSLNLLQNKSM
Sequence of UniProt P11362 (whole entry, looked up): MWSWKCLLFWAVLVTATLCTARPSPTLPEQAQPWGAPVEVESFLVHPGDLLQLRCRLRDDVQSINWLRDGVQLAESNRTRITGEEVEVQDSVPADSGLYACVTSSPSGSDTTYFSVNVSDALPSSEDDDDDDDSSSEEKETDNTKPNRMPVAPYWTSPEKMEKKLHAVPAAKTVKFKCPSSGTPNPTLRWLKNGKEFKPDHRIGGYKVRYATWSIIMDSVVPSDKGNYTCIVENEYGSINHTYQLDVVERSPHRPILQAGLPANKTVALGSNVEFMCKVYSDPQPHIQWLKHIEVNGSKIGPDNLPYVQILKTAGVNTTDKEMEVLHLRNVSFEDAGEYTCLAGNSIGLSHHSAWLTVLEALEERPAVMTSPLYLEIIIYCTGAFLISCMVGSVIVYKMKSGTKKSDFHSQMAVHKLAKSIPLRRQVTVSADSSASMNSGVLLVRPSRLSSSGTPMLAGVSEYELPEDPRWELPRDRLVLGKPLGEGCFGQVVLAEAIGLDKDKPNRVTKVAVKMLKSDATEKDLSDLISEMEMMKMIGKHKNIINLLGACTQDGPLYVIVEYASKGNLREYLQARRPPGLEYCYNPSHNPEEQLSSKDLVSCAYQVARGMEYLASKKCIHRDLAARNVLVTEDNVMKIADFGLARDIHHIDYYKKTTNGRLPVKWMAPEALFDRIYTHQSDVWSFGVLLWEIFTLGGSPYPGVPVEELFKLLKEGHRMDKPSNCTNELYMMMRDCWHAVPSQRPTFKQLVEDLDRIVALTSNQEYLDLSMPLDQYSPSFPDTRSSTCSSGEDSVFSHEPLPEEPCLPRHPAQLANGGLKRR
Sequence of UniProt Q7L7X3 (whole entry, looked up): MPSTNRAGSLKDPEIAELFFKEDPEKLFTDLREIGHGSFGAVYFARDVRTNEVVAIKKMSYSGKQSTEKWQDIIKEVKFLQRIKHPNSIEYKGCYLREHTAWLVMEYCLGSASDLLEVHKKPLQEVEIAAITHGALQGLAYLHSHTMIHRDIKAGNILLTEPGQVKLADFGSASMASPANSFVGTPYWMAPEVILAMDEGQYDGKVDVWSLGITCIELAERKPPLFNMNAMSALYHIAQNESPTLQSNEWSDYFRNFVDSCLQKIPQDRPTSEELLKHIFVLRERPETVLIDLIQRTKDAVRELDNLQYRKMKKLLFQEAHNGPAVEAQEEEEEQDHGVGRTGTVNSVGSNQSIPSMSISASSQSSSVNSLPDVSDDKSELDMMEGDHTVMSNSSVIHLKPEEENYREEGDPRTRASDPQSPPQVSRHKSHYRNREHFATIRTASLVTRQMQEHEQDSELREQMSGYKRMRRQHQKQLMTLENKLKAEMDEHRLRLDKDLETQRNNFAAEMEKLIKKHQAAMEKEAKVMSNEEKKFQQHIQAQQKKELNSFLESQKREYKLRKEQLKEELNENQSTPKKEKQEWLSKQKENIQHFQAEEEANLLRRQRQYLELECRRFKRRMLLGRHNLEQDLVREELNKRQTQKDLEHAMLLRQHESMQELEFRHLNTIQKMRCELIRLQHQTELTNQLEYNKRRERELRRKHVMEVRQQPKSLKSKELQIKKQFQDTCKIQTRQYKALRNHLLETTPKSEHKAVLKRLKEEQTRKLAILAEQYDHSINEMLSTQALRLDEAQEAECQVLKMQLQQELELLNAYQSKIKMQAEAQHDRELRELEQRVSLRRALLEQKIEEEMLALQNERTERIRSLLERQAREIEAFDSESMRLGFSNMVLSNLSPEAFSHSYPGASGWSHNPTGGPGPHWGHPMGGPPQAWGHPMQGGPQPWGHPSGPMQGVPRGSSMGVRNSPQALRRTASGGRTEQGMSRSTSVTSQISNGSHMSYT
Sequence of UniProt Q9HC98 (whole entry, looked up): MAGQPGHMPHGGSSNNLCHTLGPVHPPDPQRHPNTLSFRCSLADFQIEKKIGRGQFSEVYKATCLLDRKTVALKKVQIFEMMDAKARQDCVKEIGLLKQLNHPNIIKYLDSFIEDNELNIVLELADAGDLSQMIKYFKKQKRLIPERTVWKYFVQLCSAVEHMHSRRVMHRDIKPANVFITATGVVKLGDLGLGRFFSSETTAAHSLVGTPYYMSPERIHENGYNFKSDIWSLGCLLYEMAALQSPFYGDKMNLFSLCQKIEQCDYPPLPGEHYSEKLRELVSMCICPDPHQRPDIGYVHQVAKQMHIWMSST
Sequence of UniProt Q96PY6 (whole entry, looked up): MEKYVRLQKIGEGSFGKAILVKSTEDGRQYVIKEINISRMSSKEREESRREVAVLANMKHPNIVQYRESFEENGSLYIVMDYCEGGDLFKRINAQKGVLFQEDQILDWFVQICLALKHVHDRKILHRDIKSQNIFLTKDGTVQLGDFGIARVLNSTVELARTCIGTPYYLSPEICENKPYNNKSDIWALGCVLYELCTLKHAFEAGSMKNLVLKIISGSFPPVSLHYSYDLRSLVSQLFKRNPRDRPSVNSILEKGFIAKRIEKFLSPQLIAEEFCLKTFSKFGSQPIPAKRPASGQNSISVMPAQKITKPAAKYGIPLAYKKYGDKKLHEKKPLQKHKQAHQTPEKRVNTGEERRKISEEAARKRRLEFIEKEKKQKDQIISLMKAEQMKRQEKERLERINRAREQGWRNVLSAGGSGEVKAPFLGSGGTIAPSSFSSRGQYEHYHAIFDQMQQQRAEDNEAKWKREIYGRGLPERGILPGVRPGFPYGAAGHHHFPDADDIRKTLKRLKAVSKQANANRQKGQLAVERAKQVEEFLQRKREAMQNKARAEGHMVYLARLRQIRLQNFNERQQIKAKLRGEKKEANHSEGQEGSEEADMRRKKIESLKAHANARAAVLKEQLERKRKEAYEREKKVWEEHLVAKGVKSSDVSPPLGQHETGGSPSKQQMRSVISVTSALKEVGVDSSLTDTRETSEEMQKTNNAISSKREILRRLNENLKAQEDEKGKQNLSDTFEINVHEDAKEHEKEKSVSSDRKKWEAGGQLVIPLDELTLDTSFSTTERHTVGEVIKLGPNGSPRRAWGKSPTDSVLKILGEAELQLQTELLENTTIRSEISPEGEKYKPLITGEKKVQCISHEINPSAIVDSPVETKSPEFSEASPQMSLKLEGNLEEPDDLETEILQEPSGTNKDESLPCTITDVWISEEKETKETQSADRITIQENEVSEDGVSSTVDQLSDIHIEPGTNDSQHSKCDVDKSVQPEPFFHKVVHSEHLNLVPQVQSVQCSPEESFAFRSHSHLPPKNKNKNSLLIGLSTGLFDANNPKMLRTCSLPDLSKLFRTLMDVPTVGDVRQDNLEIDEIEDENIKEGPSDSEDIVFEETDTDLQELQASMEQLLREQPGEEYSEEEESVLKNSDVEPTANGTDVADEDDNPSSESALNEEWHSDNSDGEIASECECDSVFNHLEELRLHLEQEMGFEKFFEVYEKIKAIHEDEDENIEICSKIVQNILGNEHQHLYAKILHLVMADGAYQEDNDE
Sequence of UniProt Q6PHR2 (whole entry, looked up): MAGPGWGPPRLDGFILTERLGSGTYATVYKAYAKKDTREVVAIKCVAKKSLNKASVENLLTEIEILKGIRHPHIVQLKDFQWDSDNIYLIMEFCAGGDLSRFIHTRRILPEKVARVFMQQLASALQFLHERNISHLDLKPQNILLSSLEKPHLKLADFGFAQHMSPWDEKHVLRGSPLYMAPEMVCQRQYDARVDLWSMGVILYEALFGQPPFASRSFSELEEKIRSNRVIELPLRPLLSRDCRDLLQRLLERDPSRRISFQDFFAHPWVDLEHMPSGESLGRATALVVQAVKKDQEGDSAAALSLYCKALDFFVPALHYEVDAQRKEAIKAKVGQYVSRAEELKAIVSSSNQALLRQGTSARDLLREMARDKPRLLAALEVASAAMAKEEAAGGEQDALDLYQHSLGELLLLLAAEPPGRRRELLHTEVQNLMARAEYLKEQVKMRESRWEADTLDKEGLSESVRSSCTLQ

Sample 1 — observed: cell-free assay; method: competition with immobilised ligand; tested at: 1 µM
Compound: O=C(Nc1cccnn1)N1CC(C/C=C/c2cncc(Oc3ccc(C(F)(F)F)cn3)n2)C1
For Maternal embryonic leucine zipper kinase (MELK, Homo sapiens, UniProt Q14680): remaining binding read 100%.
Fibroblast growth factor receptor 1 (FGFR1, Homo sapiens, UniProt P11362) — remaining binding: 100%.
The remaining binding was 80% (Mitogen-activated protein kinase kinase kinase kinase 2 (MAP4K2, Homo sapiens, UniProt Q12851)).
The remaining binding was 100% (Hepatocyte growth factor receptor (MET, Homo sapiens, UniProt P08581, Y1235D)).

Sample 2 — observed: kinase activity; mode: inhibitor; tested at: 1 µM
SMILES: CC(C)S(=O)(=O)c1ccc2nccc(Nc3ccc4sc(C5CCCC5)nc4c3)c2c1.Cl
Serine/threonine-protein kinase WNK3 (WNK3, Homo sapiens, UniProt Q9BYP7) — remaining activity: 109%.
For Serine/threonine-protein kinase Nek2 (NEK2, Homo sapiens, UniProt P51955): remaining activity read 98%.
Receptor-interacting serine/threonine-protein kinase 2 (RIPK2, Homo sapiens, UniProt O43353) — remaining activity: 1% and 4%.
Serine/threonine-protein kinase TAO1 (TAOK1, Homo sapiens, UniProt Q7L7X3) — remaining activity: 96%.

Sample 3 — observed: enzyme activity; mode: inhibitor; tested at: 10 µM
Target: Calcium/calmodulin-dependent protein kinase type II subunit alpha (CAMK2A, Homo sapiens, UniProt Q9UQM7)
Sequence of UniProt Q9UQM7 (whole entry, looked up): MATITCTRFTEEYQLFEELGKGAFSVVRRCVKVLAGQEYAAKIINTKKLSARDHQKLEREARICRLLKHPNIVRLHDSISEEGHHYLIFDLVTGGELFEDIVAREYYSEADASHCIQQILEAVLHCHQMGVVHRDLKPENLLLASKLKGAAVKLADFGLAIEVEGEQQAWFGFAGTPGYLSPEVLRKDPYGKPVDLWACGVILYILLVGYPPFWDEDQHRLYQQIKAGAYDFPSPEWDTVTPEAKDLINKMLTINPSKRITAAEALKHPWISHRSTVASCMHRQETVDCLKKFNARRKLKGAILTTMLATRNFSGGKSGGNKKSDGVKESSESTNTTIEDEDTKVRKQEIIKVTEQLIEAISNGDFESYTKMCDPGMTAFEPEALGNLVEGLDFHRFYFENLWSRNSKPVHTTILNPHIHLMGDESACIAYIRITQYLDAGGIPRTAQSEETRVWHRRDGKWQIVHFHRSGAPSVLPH
For `O=C1CCC[C@@H]2[C@H]3CCC[N@+]4([O-])CCC[C@@H](CN12)[C@@H]34`, the inhibition was 14%.
With `Cc1c(O)c(C)c2c(c1O)C(=O)C[C@@H](c1ccc(O)cc1)O2` the inhibition was -37%.
`CCc1cnccn1` gave an inhibition of 26%.
`CN[C@@H](C)[C@H]1[C@H](O)C[C@@]2(C)[C@@H]3CC[C@H]4C(C)(C)[C@@H](NC)CC[C@@]45C[C@@]35CC[C@]12C` has an inhibition of 26%.

Sample 4 — species: human; sample: microsomes or S9; tested at: 2 µM; time: 0.5 h
For `Cc1nc(NC(C)Cc2ccccc2)c(C#N)c2c1COC(C)(C)C2` (stereo not drawn), the remaining compound was 2.54%.
With `CN1CCN(C(=O)CCn2c(-c3ccccc3)cc3ccccc32)CC1` the remaining compound was 4.2%.
For `COC(=O)C12CC(CCC(C)=O)C(=O)N1CCc1c2n(C(=O)OC(C)(C)C)c2ccccc12` (stereo not drawn), the remaining compound was 2.34%.
The remaining compound of `CC(C)Cc1cc(C(=O)O)c(S(=O)(=O)NC(C)(C)C)s1` is reported as 49.8%.

Sample 5 — observed: enzyme activity; mode: inhibitor; tested at: 0.5 µM; reference: control
Structure (SMILES): FC(F)(F)c1ccc(/C=C/c2nc(COc3ccc(CCCCn4ccnn4)cc3)co2)cc1
Mitogen-activated protein kinase 3 (MAPK3, Homo sapiens, UniProt P27361) — remaining activity: 100%.
It gave 99.5% for remaining activity (Serine/threonine-protein kinase ULK3 (ULK3, Homo sapiens, UniProt Q6PHR2)).
For Serine/threonine-protein kinase Nek6 (NEK6, Homo sapiens, UniProt Q9HC98): remaining activity read 92.6%.
The remaining activity was 92.7% (Ephrin type-A receptor 3 (EPHA3, Homo sapiens, UniProt P29320)).
For Fibroblast growth factor receptor 1 (FGFR1, Homo sapiens, UniProt P11362): remaining activity read 101%.
It gave 97.9% for remaining activity (MAP kinase-activated protein kinase 2 (MAPKAPK2, Homo sapiens, UniProt P49137)).
Tyrosine-protein kinase FRK (FRK, Homo sapiens, UniProt P42685) — remaining activity: 99%.
Tyrosine-protein kinase Mer (MERTK, Homo sapiens, UniProt Q12866) — remaining activity: 97.9%.
It gave 96.8% for remaining activity (Ribosomal protein S6 kinase alpha-2 (RPS6KA2, Homo sapiens, UniProt Q15349)).
For Casein kinase I isoform gamma-2 (CSNK1G2, Homo sapiens, UniProt P78368): remaining activity read 96.7%.
It gave 96.7% for remaining activity (Casein kinase I isoform gamma-3 (CSNK1G3, Homo sapiens, UniProt Q9Y6M4)).
Serine/threonine-protein kinase ULK2 (ULK2, Homo sapiens, UniProt Q8IYT8) — remaining activity: 99.6%.
The remaining activity was 88.4% (Fibroblast growth factor receptor 3 (FGFR3, Homo sapiens, UniProt P22607)).
For Serine/threonine-protein kinase Nek1 (NEK1, Homo sapiens, UniProt Q96PY6): remaining activity read 94.5%.

Excerpt of the above (sample 5):
Serine/threonine-protein kinase ULK2 (ULK2, Homo sapiens, UniProt Q8IYT8) — remaining activity: 99.6%.
The remaining activity was 88.4% (Fibroblast growth factor receptor 3 (FGFR3, Homo sapiens, UniProt P22607)).
For Serine/threonine-protein kinase Nek1 (NEK1, Homo sapiens, UniProt Q96PY6): remaining activity read 94.5%.
